# Experimental data of several laboratories.
# “And” joins repeats or separate records; there may be more than shown. ± marks the error that the study gave.
# Ahr: Aryl hydrocarbon receptor (Ahr, Rattus norvegicus, UniProt P41738)
# CHEK1: Serine/threonine-protein kinase Chk1 (CHEK1, Homo sapiens, UniProt O14757)
# uncharacterized protein: uncharacterized protein (Anopheles coluzzii, UniProt A0A6E8VQK1)
SMILES,target,test,system,conditions,scale,quantity,value
C[C@]12CC[C@H]3[C@@H](CCC4=CC(=O)CC[C@@]43C)[C@@H]1CC[C@@H]2C(=O)CO,"Cytochrome P450 11B2, mitochondrial (CYP11B2, Homo sapiens, UniProt P19099, A320V)",,,,,k1,316 ± 134 s⁻¹
C#CCCCCNC(=O)CI,"3-ketoacyl-CoA thiolase, mitochondrial (Homo sapiens, UniProt P42765)",mass spectrometry profiling,Ramos cell lysate,"100 µM over 10 µM, UniProt P42765",relative to: high over low concentration,reactivity ratio,1.66
CC[C@H](C)[C@H](NC(=O)CNC(=O)[C@@H](N)CCCCN)C(=O)N[C@@H](CC(C)C)C(=O)N[C@@H](CCCCN)C(=O)N[C@@H](CCCNC(=N)N)C(=O)N[C@@H](CCC(=O)O)C(=O)N[C@@H](CCCCN)C(=O)N[C@@H](CCCNC(=N)N)C(=O)N[C@@H](CC(C)C)C(=O)N[C@@H](CCCNC(=N)N)C(=O)N[C@@H](CCCNC(=N)N)C(=O)N[C@@H](CCCCN)C(=O)N[C@@H](CC(N)=O)C(=O)N[C@H](C(=O)N[C@@H](Cc1c[nH]cn1)C(=O)N[C@@H](Cc1c[nH]c2ccccc12)C(=O)N1CCC[C@H]1C(=O)N[C@@H](CCC(=O)O)C(=O)N[C@@H](CCC(=O)O)C(=O)NCC(=O)N[C@@H](CCCCN)C(=O)N[C@@H](CC(C)C)C(=O)N[C@@H](CCCNC(=N)N)C(=O)N[C@@H](CCC(=O)O)C(=O)N[C@@H](Cc1ccccc1)C(=O)N[C@@H](Cc1ccccc1)C(=O)N[C@@H](Cc1ccccc1)C(=O)N[C@@H](Cc1ccccc1)C(=O)N[C@@H](CCC(=O)O)C(=O)N[C@@H](CC(C)C)C(=O)N[C@@H](CC(=O)O)C(=O)N[C@@H](CCC(=O)O)C(=O)N[C@@H](C)C(=O)N[C@@H](CCC(=O)O)C(=O)N[C@@H](CCCNC(=N)N)C(=O)N[C@H](C(=O)N[C@@H](CC(N)=O)C(=O)N[C@H](C(=O)O)C(C)C)C(C)C)C(C)C,"Serine/threonine-protein phosphatase PP1-alpha catalytic subunit (PPP1CA, Homo sapiens, UniProt P62136)","binding, isothermal titration calorimetry",,"25 °C, PP1α residues 7-330",,entropic term −TΔS,-17.1 ± 1.1 kcal/mol
c1ccc2c(c1)cc1ccc3cccc4ccc2c1c34,Ahr,"agonist, CALUX reporter",H4IIE,0.126 µg/mL,,agonist response,100%
O=P(O)(O)OC[C@H]1C[C@](O)(CO)[C@@H](O)[C@H](O)[C@@H]1O,"2-epi-valiolone synthase (Actinosynnema mirum, UniProt C6WFL3)",phosphate release,,100 µM,,apparent Vmax,1.8 ± 0.2 µM/min
O=C(NO)[C@H]1COC(c2c[nH]c3ccc(F)cc23)=N1,"UDP-3-O-acyl-N-acetylglucosamine deacetylase (Pseudomonas aeruginosa, UniProt P47205, C40S)",isothermal titration calorimetry,,"concentration not given, 298 K, untagged protein, averaged",,entropy change (ΔS),0.026 kcal/mol/K
CCn1c(-c2nc3cc(C(=O)N4CCC[C@@H](N)C4)cc(OC)c3n2C)cc2cccnc21,"Protein-arginine deiminase type-3 (PADI3, Homo sapiens, UniProt Q9ULW8)",,,,relative to: Ki' PADI3 over Ki' PAD4,selectivity ratio,61
O=C(Nc1cnccc1Cl)N1CCN(Cc2ccc3c(c2)OC(F)(F)O3)CC1,"Melatonin receptor type 1A (MTNR1A, Homo sapiens, UniProt P48039)",radioligand binding,,concentration not given,,inhibition,3% and 1%
CN1CCN(c2cc(-c3ccncc3)c(-c3ccc4ccccc4c3)nn2)CC1,"Beta-3 adrenergic receptor (ADRB3, Homo sapiens, UniProt P13945)","agonist, FLIPR",,12.5 µM,,activation,-0.6%
COc1cc(Nc2ncc(F)c(Nc3ccc4c(n3)NC(=O)C(C)(C)O4)n2)cc(OC)c1OC,"Rhodopsin kinase GRK1 (GRK1, Homo sapiens, UniProt Q15835)",KINOMEscan,,10 µM,,inhibition,57%
CC(C)=CCC[C@]1(C)C=Cc2c(O)c3c(c(CC=C(C)C)c2O1)O[C@]12C(=C[C@@H]4C[C@H]1C(C)(C)O[C@@]2(C/C=C(/C)C(=O)O)C4=O)C3=O,"DNA cross-link repair 1A protein (DCLRE1A, Homo sapiens, UniProt Q6PJP8)","exonuclease activity, inhibitor, fluorescence HTS",,"10 µM, 80 min, with: 8 nM 5P-FQ substrate",,remaining activity,27.3%
COc1ccc(N2C(=O)N(c3c(C)cccc3Cl)Cc3cnc(Nc4ccc(C5CCN(C)CC5)cc4OC)nc32)nc1,CHEK1,kinase activity,,0.5 µM,,inhibition,7.4%
C[C@H]1CN(c2n[nH]c3nc(N[C@H]4CC[C@H](NS(=O)(=O)CCC(F)(F)F)CC4)ncc23)CCO1,CHEK1,"inhibitor, Kinobeads competition profiling",,0.032 µM,relative to: vehicle,relative abundance,1.03
CN(C(=O)n1cnc(-c2ccc[n+]([O-])c2)c1)C1CCCCC1,"Prostaglandin E2 receptor EP1 subtype (PTGER1, Homo sapiens, UniProt P34995)","binding, measured: EP1",,"50 µM, human, with: [3H]prostaglandin E2",,inhibition,12%
CNC(=O)Oc1cccc2c1OC(C)(C)O2,uncharacterized protein,"enzyme activity, inhibitor",Sf9 cell homogenate,"0.1163 µM, 0.1667 h, with: α-naphthyl acetate substrate",relative to: no inhibitor,remaining activity,96.1%
Nc1nc2c(ncn2[C@@H]2O[C@H](COP(=O)(O)OP(=O)(O)OP(=O)(O)O)[C@@H](O)[C@H]2O)c(=O)[nH]1,"matB (Rhodopseudomonas palustris, UniProt Q6ND88, C106A/K488A/Q457C/R286C)","binding, intrinsic fluorescence",,"250 µM, 1 µM matB, 10 mM MgCl2",,fluorescence ratio F+/F-,1.03
CC(C)[C@@H](O)CC[C@@H](C)[C@H]1CC[C@H]2[C@@H]3CC=C4C[C@@H](O)CC[C@]4(C)[C@H]3CC[C@]12C,"Glutamate NMDA receptor; GRIN1/GRIN2B (GRIN1/GRIN2B, Homo sapiens, UniProt Q05586+Q13224, L551A)","positive allosteric modulator, two-electrode voltage clamp",Xenopus oocytes expressing GluN2B-L551A,"10 µM, 0.02% cremophor, with: 100 µM glutamate and glycine",relative to: without compound,current response,534 ± 40%
C[C@@H](O)[C@H](NC(=O)[C@H](Cc1ccccc1)NC(=O)[C@H](Cc1ccccc1)NC(=O)[C@H](CC(=O)O)NC(=O)[C@H](CC(=O)O)NC(=O)[C@H](Cc1c[nH]c2ccccc12)NC(=O)[C@H](CO)NC(=O)[C@@H](N)CCCCN)C(=O)N[C@@H](CCCNC(=N)N)C(=O)O,"Epithelial sodium channel subunit alpha (Homo sapiens, UniProt P37088)","binding, bio-layer interferometry",,,,koff,0.0102 s⁻¹
Nc1ncnc2c1ncn2[C@@H]1O[C@H](COP(=O)(O)OP(=O)(O)NP(=O)(O)O)[C@@H](O)[C@H]1O,"Cell cycle histidine kinase CckA, cytoplasmic region (Caulobacter vibrioides, UniProt Q9X688)",isothermal titration calorimetry,Caulobacter crescentus,"concentration not given, 12 °C, with: without c-di-GMP",,binding enthalpy (ΔH),-1.4 kcal/mol
Nc1ncc(-c2nc(N3CCOCC3)nc(N3CCOCC3)n2)c(C(F)F)n1,"Cyclin-dependent kinase 15 (CDK15, Homo sapiens, UniProt Q96Q40)",KINOMEscan,,10 µM,,remaining binding,94%
COc1ncccc1-c1cnn2ccc(N3CCN(C(=O)OC(C)C)CC3)nc12,"Ribosomal protein S6 kinase alpha-3, N-terminal kinase domain (RPS6KA3, Homo sapiens, UniProt P51812)",KINOMEscan binding,,1 µM,relative to: untreated control,remaining binding,83%
O=C(c1ccc(Cl)cc1)N1CCN2C(=O)N(OC(=O)N3CCOc4ccccc43)C(=O)C2C1 (stereo not shown),"Proteasome Macropain subunit (Homo sapiens, UniProt P49721)",MS-based ABPP,SW-620 conditioned medium,10 µM,"relative to: compound over DMSO, lower = more inhibition",mean protein ratio,1.03
Nc1ccc2c3c(cccc13)C(=O)NC2=O,"Metallo-beta-lactamase type 2 (blaNDM-1, Klebsiella pneumoniae, UniProt C7C422)",inhibitor,,,,Hill coefficient,0.9
CCCCCCCCCCCCCCCCCC[N+](C)(C)C.[Br-],"Sodium channel protein type 4 alpha, BTX-activated (Oryctolagus cuniculus, UniProt G1SLL9)",,,,,mean closed time,~500 ms
NCCc1c[nH]c2ccc(O)cc12,"5-hydroxytryptamine receptor 1B (Htr1b, Rattus norvegicus, UniProt P28564)","radioligand binding, antagonist",,reference compound,,Hill coefficient,0.7
[2H]c1c([2H])c([C@]2([2H])CCCN2C(=O)C(C)(C)Oc2ccc3cn[nH]c3c2)c([2H])c([2H])c1C([2H])([2H])[2H],"Mitogen-activated protein kinase 9 (MAPK9, Homo sapiens, UniProt P45984)",KINOMEscan,,1 µM,relative to: DMSO control,remaining binding,100%
Nc1nc2c(ncn2[C@@H]2O[C@H](COP(=O)(O)OP(=O)(O)O[C@H]3O[C@H](CCO)C(=O)[C@@H](O)[C@@H]3O)[C@@H](O)[C@H]2O)c(=O)[nH]1,"C4-reductase HS:4, Campylobacter jejuni subsp. jejuni",substrate,,"pH 7.5, 25 °C, substrate formed in situ, with: C3-epimerase excess, NADPH 300 µM",,Km,40 ± 9 µM
CO[C@H]1C[C@H](O[C@@H]2/C(C)=C/C[C@@H]3C[C@@H](C[C@]4(CC[C@H](C)[C@@H](C5CCCCC5)O4)O3)OC(=O)[C@@H]3C=C(C)/C(=N/O)[C@H]4OC/C(=C\C=C\[C@@H]2C)[C@]43O)O[C@@H](C)[C@@H]1O,"Nuclear receptor subfamily 1 group I member 3 (Homo sapiens, UniProt Q14994)",,cells,concentration not given,,activity,inactive
C[C@H]1COCCN1c1nc(NCc2cccnc2C(F)(F)F)c2cccnc2n1,"CHRNA1/CHRNG/CHRND (Homo sapiens, UniProt P02708+P07510+Q07001)",binding,,CEREP panel,,IC50,> 100 µM
COc1cc(N)c(Cl)cc1C(=O)NC1CN2CCC1CC2 (stereo not shown),"Adhesion G protein-coupled receptor F5 (ADGRF5, Homo sapiens, UniProt Q8IZF2)","β-arrestin recruitment, TANGO luminescence, measured: GPR116",,concentration not given,relative to: basal luminescence,log2 fold change,-0.234
O=C(Nc1cccnn1)N1CCC(=Cc2cccc(Oc3ccc(C(F)(F)F)cn3)c2)CC1,"central imidazoline I2 receptor, rat",binding,,"50 µM, with: [3H]idazoxan",,inhibition,37%
CC1(C)[C@H](C(=O)O[C@H](C#N)c2cccc(Oc3ccccc3)c2)[C@@H]1C=C(Br)Br,uncharacterized protein,"enzyme activity, inhibitor",Sf9 cell homogenate,"454.5 µM, 0.1667 h, with: α-naphthyl acetate substrate",relative to: no inhibitor,remaining activity,100%
c1ccc2c(c1)cc1ccc3cccc4ccc2c1c34,Ahr,"reporter gene, agonist",H4IIE-luc rat hepatoma cells,0.2 to 50 nM,,Hill slope,43
O=C(O)COP(=O)(O)O,"TPI1 (Saccharomyces cerevisiae, UniProt P00942, S211G/Y208T)","enzyme activity, competitive inhibitor, GPDH/NADH-coupled",,"pH 7.5, 25 °C, ionic strength 0.1 NaCl, with: glyceraldehyde 3-phosphate substrate",relative to: mutant over wild type,Ki ratio,13
